# Experimental data gathered from unrelated publications.
# Each line is one published result; not all experiments were run side by side. ± marks the error that the study gave.
Substance,assay,test system,setting,how to read,measurement,result
CCN(CC)CCCC(C)Nc1ccnc2cc(Cl)ccc12 (centres unmarked),,"male athymic BALB/c nude mice, xenograft, serum","intraperitoneal, 60 mg/kg every other day, 2 weeks, together with: sulforaphane 5 mg/kg",,uric acid,127 ± 5.63 µmol/L
CC[C@H](C)[C@H](NC(=O)[C@@H](N)CCCNC(=N)N)C(=O)N[C@H](C(=O)N1CCC[C@H]1C(=O)N[C@@H](C)C(N)=O)C(C)C,,"healthy volunteers, both sexes, plasma","intravenous infusion, 4.5 mg/kg daily, day 7, multiple ascending dose",,Tmax,5 ± 1.1 min
CC(C)c1nc(N(C)S(C)(=O)=O)nc(-c2ccc(F)cc2)c1/C=C/[C@@H](O)C[C@@H](O)CC(=O)O,,"healthy volunteers, plasma","oral, dose not given, given alone",,AUC,23 ng·h/mL
O=C(c1ccc(F)c(F)c1Nc1ccc(I)cc1F)N1CC(O)([C@@H]2CCCCN2)C1,measured: retinal detachment,human patients,"oral, dose not given, dose escalation, tablet, grade G3",,treatment-related adverse events,0%
O[C@H]1CCCN[C@@H]1CCCn1cnc2c(Cl)c(Cl)ccc21,,"human, plasma","oral, 500 mg, single dose, healthy volunteers",,MRT,9.57 h
CCCCCOc1ccc(-c2ccc(-c3ccc(C(=O)N[C@H]4C[C@@H](O)[C@@H](O)NC(=O)[C@@H]5[C@@H](O)[C@@H](C)CN5C(=O)[C@H]([C@@H](C)O)NC(=O)[C@H]([C@H](O)[C@@H](O)c5ccc(O)cc5)NC(=O)[C@@H]5C[C@@H](O)CN5C(=O)[C@H]([C@@H](C)O)NC4=O)cc3)cc2)cc1,population PK model,patients aged sample B to < sample C years,"intravenous, 200 mg loading, 100 mg once daily, mean, weight-corrected",,clearance,0.283 mL/min/kg
Cc1ccc(Nc2nccc(N(C)c3ccc4c(C)n(C)nc4c3)n2)cc1S(N)(=O)=O,,"patients, plasma","oral, 600 mg, 24 h, with food, geometric mean, together with: pantoprazole",,Cmin,29500 ng/mL
CC[C@@]1(O)C(=O)OCc2c1cc1n(c2=O)Cc2cc3c(CN(C)C)c(O)ccc3nc2-1,,"human patients, plasma","oral, 8 mg weekly, MTD arm, weekly dosing, together with: pazopanib",baseline: with pazopanib over alone,AUC(0-inf) ratio,1.62
CN[C@@](C)(C[18F])C(=O)O,,"SCID mouse U87 xenograft, liver","15 min, post injection",,tissue uptake,9.3 ± 3.5 %ID/g
[123I]c1cncc(OC[C@@H]2CCN2)c1,SPECT,"human, occipital lobe","intravenous bolus plus infusion, 5.2 mCi",baseline: tissue over plasma,tissue/plasma ratio,17.1
CSCC[C@@H]1NC(=O)[C@H](CC(=O)O)NC(=O)CNC(=O)[C@H](CCCNC(=N)N)NC(=O)[C@H](C)NC(=O)[C@H](CCC(=O)O)NC(=O)[C@H](CCCNC(=N)N)NC(=O)[C@@H]2CSSC[C@@H]3NC(=O)[C@H](CO)NC(=O)[C@H]([C@@H](C)O)NC(=O)[C@@H]4CCCN4C(=O)[C@H](C)NC(=O)[C@H](Cc4c[nH]c5ccccc45)NC(=O)[C@H](CC(=O)O)NC(=O)CNC(=O)[C@H](CCCNC(=N)N)NC(=O)CNC(=O)[C@H](CCC(N)=O)NC(=O)[C@@H]4CCCN4C(=O)[C@@H](NC(=O)CNC(=O)C(C)F)CSSC[C@H](NC(=O)CNC(=O)[C@H](C)NC(=O)[C@H](CC(C)C)NC(=O)[C@H](CSSC[C@@H](C(=O)NCC(N)=O)NC(=O)[C@H]([C@@H](C)O)NC(=O)[C@H](CCCNC(=N)N)NC(=O)[C@@H]4CCCN4C1=O)NC(=O)[C@H](CC(=O)O)NC(=O)[C@H](CO)NC(=O)[C@H](CC(=O)O)NC(=O)[C@H](CCC(N)=O)NC(=O)[C@H](CO)NC3=O)C(=O)N[C@@H](C(C)C)C(=O)N2 (some centres unmarked) [fluorine-18 labelled],,"nude mice U-87 MG xenograft, tumor","intravenous, 0.5 h",,tissue uptake,3.76 ± 0.59 %ID/g
CCCN(CCC)C(=O)Oc1c(OC)cc(-c2nc(-c3ccccc3)c(-c3cccs3)[nH]2)cc1OC,,"C57BL/6 mouse, CES1 knockout, liver homogenate","10 µM, 1 h, 37 °C",,remaining compound,> 50%
CCOC(=O)c1cncn1Cc1ccccc1,"serum corticosterone, inhibitor",Sprague-Dawley rat,"intravenous, 15 min, 50% reduction, together with: ACTH1-24",,ID50,2.7 ± 0.3 mg/kg
CC(C)C[C@@H](N)C(=O)N[C@H]1C(=O)N[C@@H](CC(N)=O)C(=O)N[C@H]2C(=O)N[C@H]3C(=O)N[C@H](C(=O)N[C@H](C(=O)O)c4cc(O)cc(O)c4-c4cc3ccc4O)[C@H](O)c3ccc(c(Cl)c3)Oc3cc2cc(c3O[C@@H]2O[C@H](CO)[C@@H](O)[C@H](O)[C@H]2O[C@H]2C[C@](C)(N)[C@H](O)[C@H](C)O2)Oc2ccc(cc2Cl)[C@H]1O,,"New Zealand White rabbit, iris","continuous topical ocular, dose not given, 24 h",baseline: eye drops,AUC(0-24) ratio,~10 fold
N[C@@H](CCCCNP(=O)(O)O)C(=O)O,,,"100 µM, 180 min, no enzyme",,non-enzymatic hydrolysis,> 40%
Cc1cc(C(C#N)c2ccc(Cl)cc2)c(Cl)cc1NC(=O)c1cc(I)cc(I)c1O (centres unmarked),,"parasitized Corriedale lambs, plasma","oral, 10 mg/kg",,mean residence time,490 ± 111 h
CCCCCCCCCC[N+](C)(C)Cc1ccccc1,in vitro-in vivo extrapolation,human,,,hepatic clearance,2.31 mL/h/g liver
CC(C)C[C@H](NC(=O)[C@H](CCC(=O)O)NC(=O)[C@H](CCC(=O)O)NC(=O)[C@H](CC(=O)O)NC(=O)[C@H](CCC(=O)O)NC(=O)[C@H](CCC(=O)O)NC(=O)[C@H](CCC(=O)O)NC(=O)[C@@H](N)CC(=O)O)C(=O)O,,"rat, plasma","intranasal, 5.5 mg/kg single dose, 165 min",,plasma concentration,21.6 ng/mL
O=S(=O)(O)Oc1ccc(-c2cccc(Cl)c2)cc1Cl,,"rat Sprague-Dawley male, brain","intravenous, 575 µg/kg, 1 h, total dose 142 µg",,fraction of dose in brain,0.7%
[Met(O2)35]Aβ40,electron microscopy,sodium phosphate buffer,"10 µM, pH 7.4, 25 °C, agitation 200 rpm",,time to fibril formation,≤ 96 h
CC(=O)N[C@H](CCCCNC(=O)C(C)F)C(=O)N[C@@H](CS)C(=O)N[C@@H](CS)C(=O)N[C@@H](CCC(=O)O)C(=O)N[C@@H](Cc1c[nH]cn1)C(=O)N[C@H](Cc1ccccc1)C(=O)N[C@@H](CCCNC(=N)N)C(=O)N[C@@H](Cc1c[nH]c2ccccc12)C(=O)N[C@@H](CS)C(=O)N[C@@H](CCCNC(=N)N)C(=O)N1CCC[C@H]1C(=O)N[C@H](C(N)=O)C(C)C (some centres unmarked) [fluorine-18 labelled],,"C57BL/6 mice, male, B16-F10 tumour, liver","intravenous, 1 h",,tissue uptake,1.36 ± 0.22 %ID/g
triclabendazole sulfone,,human liver mitochondrial fraction,"1 µM, 30 min",,metabolised fraction,0%
NC(=O)c1nc(F)c[nH]c1=O,UV-Vis spectrophotometry,supercritical CO2,"120 min, 338 K, 12 MPa, 384.17 kg/m^3",,solubility,4 µg/mL

# Excerpt of the above:
Substance,assay,test system,setting,how to read,measurement,result
CC(C)c1nc(N(C)S(C)(=O)=O)nc(-c2ccc(F)cc2)c1/C=C/[C@@H](O)C[C@@H](O)CC(=O)O,,"healthy volunteers, plasma","oral, dose not given, given alone",,AUC,23 ng·h/mL
